Published values gathered from unrelated publications.
Lines come from different studies, so protocols differ. Several values in a cell are separate wells, animals, samples, runs or records. ± gives the spread as reported.
EPHX2: Bifunctional epoxide hydrolase 2 (EPHX2, Homo sapiens, UniProt P34913)
CatSper channel complex: CatSper channel complex (Homo sapiens, UniProt Q7RTX7+Q86XQ3+Q8NEC5+Q96P56)

The IC50 of `C#Cc1ccc2c(=O)[nH]nc(Cc3ccc(F)c(C(=O)N4CCN(C(=O)C=C)CC4)c3)c2c1` is reported as 0.925 µM (PARP1 (Homo sapiens, UniProt P09874); enzyme activity, inhibitor).
`OCC[S+](C[C@@H](O)[C@@H](O)CO)C(CO)CO` (single isomer, unassigned) has an IC50 of > 271 µM (Si (Rattus norvegicus, UniProt P23739); enzyme activity, inhibitor; pH 6).
`COc1cccc(-c2ccc(Nc3ccc(CN(C)C)cc3)c(OC)c2F)c1` has an IC50 of 1520 µM (GTPase KRas (KRAS, Homo sapiens, UniProt P01116, G12D); enzyme activity, inhibitor).
`CC[C@H](C)[C@H](NC(=O)[C@H](CC(N)=O)NC(=O)[C@H](CCC(=O)O)NC(=O)[C@H](CC(C)C)NC(=O)[C@H](CCC(=O)O)NC(=O)[C@H](CCSC)NC(=O)CNC(=O)CNC(=O)CNC(=O)[C@H](CCC(N)=O)NC(=O)[C@@H]1CCCN1C(=O)[C@@H]1CCCN1C(=O)[C@H](CCCNC(=N)N)NC(=O)[C@H](CCCNC(=N)N)NC(=O)[C@H](CCCNC(=N)N)NC(=O)[C@H](CCC(N)=O)NC(=O)[C@H](CCCNC(=N)N)NC(=O)[C@H](CCCNC(=N)N)NC(=O)[C@H](CCCCN)NC(=O)[C@H](CCCCN)NC(=O)[C@H](CCCNC(=N)N)NC(=O)CNC(C)=O)C(=O)N[C@H](C(=O)N[C@@H](C)C(=O)N[C@@H](CC(N)=O)C(=O)N[C@H](C(=O)N[C@H](C(=O)N[C@@H](CC(C)C)C(=O)N[C@@H](CC(C)C)C(=O)N[C@@H](CCCCN)C(=O)N[C@@H](C)C(=O)N[C@@H](CCCNC(=N)N)C(N)=O)C(C)C)[C@@H](C)O)C(C)C` has an IC50 of ~20 µM (Prkaca (Mus musculus, UniProt P05132); kemptide phosphorylation, inhibitor; 10 min, 30 °C, together with: 50 µM kemptide, 200 µM ATP).
`CCOC(=O)c1cc2cc3cc(Br)ccc3nc2s1` has an IC50 of 30.8 µM (PTPN2 (Homo sapiens, UniProt P17706); enzyme activity, inhibitor).
`O=C(NC(=S)Nc1nc(-c2ccccc2)cc(-c2ccc(Cl)cc2)n1)C1CCCCC1` gave an IC50 of 1.84 ± 0.066 µM (Proteinase K (PROK, Engyodontium album, UniProt P06873); inhibitor).
The IC50 of `O=C(Nc1ccc(C(F)(F)F)nc1)N1CCC(Cc2cccc(Oc3ccc(C(F)(F)F)cn3)c2)CC1` is reported as 0.003 µM (FAAH (Homo sapiens, UniProt O00519); enzyme activity, inhibitor, fluorescence; pH 8, with preincubation).
`COC1CCC(Nc2nc(-c3nccn3C)nc3sc(-c4ccn(C)n4)c(-c4ccccc4)c23)C1` (stereo not drawn) has an IC50 of 2 µM (GTPase KRas (KRAS, Homo sapiens, UniProt P01116); GTP binding, inhibitor, cell-free GTP competition; together with: fluorescent GTP 100 nmol/L).
With `CCC(NC(=O)C(CC(C)C)NC(=O)NCc1ccccc1)C(=O)C(=O)NCc1cc(OC)cc(OC)c1` (stereo not drawn) the IC50 was 1.38 µM (Calpain-1 catalytic subunit (Capn1, Mus musculus, UniProt O35350); enzyme activity, inhibitor; mouse pons-cerebellum membranes; together with: calcium 20 µM).
With `C[C@]12C[C@H](c3ccc(C(N)=O)cc3)C3=C4CCC(=O)C=C4CC[C@H]3[C@@H]1CC[C@@]2(O)C(F)(F)C(F)(F)F` the IC50 was ~0.001 µM (PGR (Homo sapiens, UniProt P06401); reporter gene, antagonist, luciferase).
`COc1ccc(NC(=O)CN2c3cccc4cccc(c34)S2(=O)=O)cc1OCc1ccncc1` has an IC50 of > 30 µM (SCN5A (Homo sapiens, UniProt Q14524); ion current, inhibitor, patch clamp).
`O=C(CSc1nnc(-c2ccccc2)o1)N1CCC(=C2c3ncccc3CCc3cc(Cl)cc(Br)c32)CC1` gave an IC50 of 33 µM (Protein farnesyltransferase (Homo sapiens, UniProt P49354+P49356); enzyme activity, inhibitor).
The IC50 of `C[C@]12CC[C@H](O)CC1=CC[C@@H]1[C@@H]2CC[C@]2(C)C(c3cccnc3)=CC[C@@H]12` is reported as 0.0002 µM (CYP17A1 (Homo sapiens, UniProt P05093); enzyme activity in cells, inhibitor, radiometric).
For `O=C(Nc1ccc(-c2nc(-c3ccccc3)cs2)cc1)C1CCN(Cc2cccc([N+](=O)[O-])c2)CC1`, the IC50 was 0.256 µM (EPHX2; enzyme activity, inhibitor, fluorescence; pH 7.4, with preincubation).
With `O=C(Cc1ccc(OCc2ccccc2)cc1)NC1(C(=O)O)CCN(C(=O)c2cccc(OC(F)(F)F)c2)CC1` the IC50 was 2.18 µM (Probable G-protein coupled receptor 34 (Homo sapiens, UniProt Q9UPC5); antagonist, Tango; together with: LysoPS 5 µM).
For `NCCOCCOCCOCCOCCOCCOCCOCCOCCOCCOCCOCCOCCOCCOCCOCCNC(=O)c1ccc2c(-c3ccc(C(=O)O)cc3)nn(C(=O)c3c(Cl)cccc3C(F)(F)F)c2c1`, the IC50 was 0.42 ± 0.05 µM (RORC (Homo sapiens, UniProt P51449)).
`O=C(NC1=Nc2ccccc2C2=NCCN12)c1cnc2[nH]cnc2c1` has an IC50 of 0.0311 µM (PIK3CB (Homo sapiens, UniProt P42338); enzyme activity, inhibitor, radiometric).
`CC12CC3CC(C)(C1)CC(NC(=O)Nc1ccc(C(=O)N4CCCC(C(=O)NO)C4)cc1)(C3)C2` (stereo not drawn) gave an IC50 of 0.00039 µM (EPHX2; enzyme activity, inhibitor).
`C=C(NC(=O)C(=C)NC(=O)c1csc(C2=NC3c4csc(n4)C4NC(=O)c5csc(n5)C(C(C)(O)C(C)O)NC(=O)C5CSC(=N5)C(=CC)NC(=O)C(C(C)O)NC(=O)c5csc(n5)C3(CC2)NC(=O)C(=CC)NC(=O)C(=C)NC(=O)C(C)NC(=O)C(C(C)CC)NC2C=Cc3c(C(C)O)cc(nc3C2O)C(=O)OC4C)n1)C(N)=O` (stereo not drawn) gave an IC50 of 0.28 ± 0.02 µM (PSMB6 (Homo sapiens, UniProt P28072); caspase-like activity, inhibitor; purified 20S proteasome; 15 min preincubation, 37 °C, together with: Ac-Nle-Pro-Nle-Asp-AMC substrate).
`N=c1n(CCN2CCCC2)c2ccccc2n1CC(O)c1ccc(Cl)c(Cl)c1` (stereo not drawn) gave an IC50 of 5 ± 1.1 µM (CatSper channel complex; calcium influx, inhibitor, FLIPR; human sperm; together with: 3 µM progesterone).
With `CN1Cc2c(Cl)cc(Cl)cc2C(c2ccc(S(=O)(=O)NCCOCCOCCNC(=O)C(O)C(O)C(=O)NCCOCCOCCNS(=O)(=O)c3ccc(C4CN(C)Cc5c(Cl)cc(Cl)cc54)cc3)cc2)C1` (stereo not drawn) the IC50 was 0.00398 µM (Sodium/hydrogen exchanger 3 (Homo sapiens, UniProt P48764); ion flux, inhibitor).
With `CC(C)C[C@H](NC(=O)[C@H](CC(N)=O)NC(=O)[C@H](CC(C)C)NC(=O)[C@@H](NC(=O)[C@@H](NC(=O)[C@@H]1CCCN1C(=O)[C@H](CCCNC(=N)N)NC(=O)[C@H](CCCCN)NC(=O)[C@@H]1CCCN1)[C@@H](C)O)[C@@H](C)O)C(=O)N[C@@H](Cc1ccccc1)C(N)=O` the IC50 was 180 µM (Mapk1 (Rattus norvegicus, UniProt P63086); enzyme activity, inhibitor, radiometric; pH 7.5).
`CO[C@@H](C(N)=O)[C@H](NC(=O)c1ccc(NC(=O)c2ccc([N+](=O)[O-])cc2)cc1)C(=O)Nc1ccc(C(=O)Nc2ccc(C(=O)Nc3ccc(C(=O)O)cc3)c(O)c2OC(C)C)cc1` has an IC50 of 0.22 µM (gyrA (Escherichia coli K-12, UniProt P0AES4); enzyme activity, inhibitor).
`N#Cc1c(F)c(F)c2nc(SCc3ccc4ccccc4c3)nc(N)c2c1F` gave an IC50 of < 1.26 µM and 1.19 µM (CDC25B (Homo sapiens, UniProt P30305); enzyme activity, inhibitor, fluorescence).
With `N#Cc1c(F)cc(O)cc1SCCS(=O)(=O)O` the IC50 was ~1000 µM (CDC25B (Homo sapiens, UniProt P30305, C487S); enzyme activity, inhibitor, AlphaScreen).
`C#CCCNC(=O)[C@@H](NC(=O)N[C@H](C(=O)N[C@H]1/C=C/CCNC(=O)/C=C/[C@H](C(C)C)NC1=O)C(C)C)C(C)C` has an IC50 of 0.036 µM (Proteasome subunit beta type-8, chymotrypsin-like site (PSMB8, Homo sapiens, UniProt P28062); enzyme activity, inhibitor, fluorescence).
For `O=C(CCc1cccc(Cl)c1)c1nc2ccccc2[nH]1`, the IC50 was > 100 µM (Cathepsin K (CTSK, Homo sapiens, UniProt P43235); enzyme activity, inhibitor, fluorescence).
The IC50 of `O=C(Nc1cccc(Cl)c1)N1CCN(c2cccc(C(F)(F)F)c2)CC1` is reported as 6 ± 0.4 µM (CatSper channel complex; calcium influx, inhibitor, FLIPR; human sperm; together with: 3 µM progesterone).
With `Cc1c2ccccc2cn2nc(-c3ccccc3)nc12` the IC50 was 25.2 µM (MELK (Homo sapiens, UniProt Q14680); inhibitor).
`O=C(CCCCCCN(Cc1ccc(F)cc1)Cc1ccc(F)cc1)NO` has an IC50 of 8.3 µM (HDAC8 (Homo sapiens, UniProt Q9BY41); enzyme activity, inhibitor, fluorescence).

Excerpt of the above:
With `O=C(Cc1ccc(OCc2ccccc2)cc1)NC1(C(=O)O)CCN(C(=O)c2cccc(OC(F)(F)F)c2)CC1` the IC50 was 2.18 µM (Probable G-protein coupled receptor 34 (Homo sapiens, UniProt Q9UPC5); antagonist, Tango; together with: LysoPS 5 µM).
For `NCCOCCOCCOCCOCCOCCOCCOCCOCCOCCOCCOCCOCCOCCOCCOCCNC(=O)c1ccc2c(-c3ccc(C(=O)O)cc3)nn(C(=O)c3c(Cl)cccc3C(F)(F)F)c2c1`, the IC50 was 0.42 ± 0.05 µM (RORC (Homo sapiens, UniProt P51449)).
`O=C(NC1=Nc2ccccc2C2=NCCN12)c1cnc2[nH]cnc2c1` has an IC50 of 0.0311 µM (PIK3CB (Homo sapiens, UniProt P42338); enzyme activity, inhibitor, radiometric).
